Measured values collected from several papers.
Lines come from different studies, so protocols differ. Values joined by “and” are separate records of one study, mostly repeats; a detail may differ. ± gives the spread as reported.
TDP1: Tyrosyl-DNA phosphodiesterase 1 (TDP1, Homo sapiens, UniProt Q9NUW8)
UniProt Q9NUW8, sequence (whole entry, looked up): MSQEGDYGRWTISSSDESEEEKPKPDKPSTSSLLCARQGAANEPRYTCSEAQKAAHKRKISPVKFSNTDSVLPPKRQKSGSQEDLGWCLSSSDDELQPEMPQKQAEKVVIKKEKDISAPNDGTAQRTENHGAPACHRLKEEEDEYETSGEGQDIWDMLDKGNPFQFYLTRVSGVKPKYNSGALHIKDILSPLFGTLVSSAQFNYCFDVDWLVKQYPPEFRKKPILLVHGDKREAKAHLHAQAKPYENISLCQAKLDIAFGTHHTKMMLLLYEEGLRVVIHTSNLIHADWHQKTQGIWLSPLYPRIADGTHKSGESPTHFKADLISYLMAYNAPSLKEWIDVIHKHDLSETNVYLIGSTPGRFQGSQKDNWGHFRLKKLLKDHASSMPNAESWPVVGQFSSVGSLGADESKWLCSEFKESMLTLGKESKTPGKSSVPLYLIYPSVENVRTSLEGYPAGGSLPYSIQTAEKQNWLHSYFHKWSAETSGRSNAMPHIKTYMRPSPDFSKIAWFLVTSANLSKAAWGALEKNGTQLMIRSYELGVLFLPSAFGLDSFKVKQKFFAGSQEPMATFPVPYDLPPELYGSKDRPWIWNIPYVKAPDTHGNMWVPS

`COc1cccc(OC)c1-c1cc(C(=O)NC2(C(=O)O)C3CC4CC(C3)CC2C4)nn1-c1ccc(C(=O)N(C)CCOCCOCCN(C)C(=O)[C@H](CCCCNC(=O)[C@H](CC(C)C)NC(=O)C2OC2C(=O)O)NC(=O)CN2CCN(CC(=O)[O-])CCN(CC(=O)[O-])CCN(CC(=O)[O-])CC2)cc1C(C)C.[177Lu+3]` (mixture of isomers) gave an internalized fraction of 0.83 ± 0.02% (HT-29; concentration not given, 60 min; baseline: added activity).
`O=C(O)c1ccc(Nc2c(-c3ccc(CON=Cc4cc5ccccc5c5ccccc45)cc3)nc3cc(-c4ccccc4)ccn23)cc1` (mixture of isomers) gave an inhibition of 18.8% (TDP1; enzyme activity, inhibitor; 100 µM, unpurified compound).
For `CNS(=O)(=O)Nc1nccc(Cc2c(C)c3ccc(Oc4ncccc4F)cc3oc2=O)c1F`, the IC50 was > 1 µM (TCC-SUP; cell viability, inhibitor, CellTiter-Glo; 7 days).
For `CN1CCC(N[C@H]2CCc3[nH]c4c(C(N)=O)ccc(-c5ccccc5Cl)c4c3C2)CC1`, the IC50 was 2.27 µM (A549 parental; cell proliferation).
Under “log2 fold change”, `C[C@@H]1Cc2c([nH]c3ccccc23)[C@@H](c2c(F)cc(/C=C/C(=O)O)cc2F)N1C12CC(C1)C2` is recorded as 1.36 (MCF7; RNA-seq, measured: LIPH mRNA; 1 µM, 24 h, E2-suppressed gene; baseline: DMSO vehicle).
For `COC(=O)c1cc(NC2=NC(=O)C(=Cc3ccc(N(C)C)cc3)S2)ccc1OC(C)=O`, the metabolite level was -1.71 fold change (MCF7; GC-MS, measured: Cycloserine; 1 µM; baseline: DMSO).
`Cc1cncc(N2CCC(C=NOCc3ccc(-c4nc5cc(-c6ccccc6)ccn5c4Nc4ccc(C(=O)O)cc4)cc3)CC2)n1` gave an inhibition of 41.2% (TDP1; enzyme activity, inhibitor; 100 µM).
With `CC(C)Cc1ccc(C(C)C(=O)[Se]CC(=O)Nc2cccc(C(F)(F)F)c2)cc1` (stereo not shown) the GI50 was 2.01 µM (NCI60 melanoma subpanel; cell growth, inhibitor; five-dose).
`Cn1ncc2cc(-c3cncc(Cl)c3N3CCC4(CCNC4=O)CC3)ccc21`: “log2 fold change” -2.16 (LS174T; gene expression, microarray, measured: CARD6 mRNA; concentration not given, 24 h; baseline: untreated cells).
With `CCCC(CCC)C(=O)OCc1cn(-c2cc3ccccc3oc2=O)nn1` the growth percentage was 103% (HCC 2998; NCI60 single-dose screen; 10 µM).
`COc1ccccc1-c1ccncc1C(=O)Nc1nnc(OCc2ccc(Cl)cc2)s1` has a colony survival of 98.5% and 81.5% (MDA-MB-231; 3 µM, single replicate; baseline: untreated).
`CCCCc1ccc(/C=C/C(=O)Nc2cc(Nc3nccc(-c4cn(C)c5ccccc45)n3)c(OC)cc2N(C)CCN(C)C)cc1` has an inhibition of 60.2% (NCI-H1975; cell growth or viability, MTT; 0.5 µM, 72 h).
Under “early apoptotic cells (annexin V+/PI-)”, `Cc1cc(Cl)cc(-c2ccnc3cc(CN4C(=O)C5C(C4=O)C5(C)C)sc23)c1C[C@@H]1CNCCO1` (stereo partly shown) is recorded as 21.8% and 17.8% and 14% (CHP-212 parental (wild-type USP7); annexin V-PI flow cytometry; 0.3 µM, 48 h).
For `COC(=O)c1cncc(N2Cc3cnn(Cc4ccc(F)cc4)c3C2)n1`, the IC50 was 0.09 µM (HEK293 expressing GluA1 and GluA2; glutamate excitotoxic cell death, CellTox Green; added: glutamate).
`Nc1c(S(=O)(=O)O)cc(Nc2cccc(S(N)(=O)=O)c2)c2c1C(=O)c1ccccc1C2=O` gave a protein level of 50 to 70% (primary mouse articular chondrocytes; Western blot, measured: Phlpp1; 25 µM, days 0-6 and 0-9; baseline: vehicle).
With `COc1ccccc1-c1ccncc1C(=O)Nc1ccc(OCc2ccc(Cl)cc2)nn1` the colony survival was 101% and 98.6% and 103% (DLD-1 parental (BRCA2 WT); 5 µM, single run; baseline: untreated).
Under “mitochondrial membrane potential”, `N=C(N)NCCC[C@@H](NC(=O)[C@H](Cc1ccccc1)NC(=O)[C@H](Cc1ccccc1)NC(=O)[C@@H](CCCNC(=N)N)NC(=O)CCCC[C@@H]1SC[C@@H]2NC(=O)N[C@@H]21)C(N)=O` is recorded as ~3 fold (MDBK; MitoTracker Red CMXRos; 1 µM, serum-free medium; baseline: untreated cells).
Under “protein level log2 fold change”, `Cc1ncsc1-c1ccc([C@H](C)NC(=O)[C@@H]2C[C@@H](O)CN2C(=O)[C@@H](NC(=O)[C@H]2C[C@H](C(=O)N3CCC(c4cc(Nc5cc(C#N)ccn5)nc(N5CCC(F)(F)C5)c4)CC3)C2)C(C)(C)C)cc1` is recorded as -0.129 (CAL-33 with inducible wild-type LZK; MS proteomics, measured: HSPB8; 500 nM, 24 h, added: doxycycline; baseline: DMSO).
`C=C(NC(=O)c1csc(-c2ccc(NC(=O)CCCCCBr)cc2)n1)C(=O)NC(=C)C(=O)OC` gave an EC50 of 0.85 µM (H-MESO-1; cell viability, crystal violet; 24 h exposure, 48 h total).
The mean TGI of `O=C(C[Se]C(=O)c1cc2ccccc2o1)Nc1cccc(C(F)(F)F)c1` is reported as 3.21 µM (NCI60 CNS subpanel; NCI60 five-dose screen).
`CN1CCCNC(=O)c2cccc(c2)C(=O)NCCCN(C)CCCNc2cccc3c2C(=O)c2cccc(c2C3=O)NCCC1`: “log2 fold change” 2.59 (SAS; RNA-Seq, measured: CTSO mRNA; 1 µM, 6 h; baseline: untreated cells).
`CCOC(=O)c1ccc(NC(=O)C(C#N)=C2C(=O)c3ccccc3C2=O)cc1` gave a viability of 50% (HepG2; cell growth or viability, MTT; 25 µM, 24 h).
`Cc1ccc(-n2cc(CSc3nc4ccccc4n3Cc3cn(-c4ccc(C)cc4)nn3)nn2)cc1` has a cytotoxicity of 90.9% (HEK293; MTT; 250 ppm).
With `C=CC(=O)Nc1cc(Nc2nccc(-c3c(-c4ccc5c(c4)OCO5)n(C)c4ccccc34)n2)c(OC)cc1N(C)CCN(C)C` the inhibition was 73.2% (NCI-H1975; cell growth or viability, MTT; 0.5 µM, 72 h).
With `C=CC(=O)N1[C@H](c2ccc3c(c2)OCO3)c2[nH]c3ccccc3c2C[C@@H]1C(=O)NC1CC1` the neuron degeneration was 22.4% and 21.8% (rat DRG neurons; 1.111 µM, 48 h, added: vincristine 40 nM).
For `O=C(C[Se]C(=O)c1ccccc1Nc1cccc(C(F)(F)F)c1)Nc1cccc(C(F)(F)F)c1`, the mean TGI was 4.39 µM (NCI60 melanoma subpanel; total growth inhibition, inhibitor; five-dose).
The TGI of `[Cl-].[Cl-].[Ru+2].c1ccc(-c2ccccn2)nc1.c1ccc(-c2ccccn2)nc1.c1ccc2cc3nc4c5cccnc5c5ncccc5c4nc3cc2c1` is reported as 0.136 µM (SK-MEL-28; cell growth, SRB; cool white visible light, normoxia).
For `COc1cc(N(C)CCN(C)C)c(NC(=O)/C=C/c2ccc(OC)c3ccccc23)cc1Nc1nccc(-c2cn(C)c3ccccc23)n1`, the inhibition was 60.2% (NCI-H1975; cell growth or viability, MTT; 0.5 µM, 72 h).
`O=C(C[Se]C(=O)c1cccnc1Nc1cccc(C(F)(F)F)c1)Nc1cccc(C(F)(F)F)c1` has a GI50 of 1.71 µM (NCI60 melanoma subpanel; cell growth, inhibitor; five-dose).
For `N#Cc1cccc(/C=C/C(=O)c2ccc(O)cc2)c1`, the fold change was 53.2 (U-87 MG; measured: ARAP2; concentration not given; baseline: untreated).
For `CC1(C)CC[C@@]2(CO)C(=C3C=C[C@@H]4[C@@]5(C)CC[C@H](O)[C@@](C)(CO)[C@@H]5CC[C@@]4(C)[C@]3(C)C[C@@H]2O)C1`, “relative ROS fluorescence” read 1.04 and 0.527 and 1.54 (HepG2, control siRNA; flow cytometry; concentration not given, high dose; baseline: control cells).
With `Cc1c(Cl)cccc1Nc1ccccc1C(=O)[Se]CC(=O)Nc1cccc(C(F)(F)F)c1` the mean TGI was 3.57 µM (NCI60 leukaemia subpanel; NCI60 five-dose screen).
The IC50 of `CC(C)c1ccc(N(C)c2ccc3c(c2)OCC[C@H]3CNc2cnccc2C(=O)O)cc1` is reported as 0.000706 µM (NCI-H1048; cell viability, CellTiter-Glo; 7 days).
For `O=C(N1CCCC1)n1cc(-c2ccc(-c3ccccc3)cc2)nn1`, “SILAC ratio per peptide” read 1.27 and 0.87 and 1.18 and 1.03 and 1.15 and 0.94 and 1.06 (mouse T cells; N-terminal labelling proteomics, measured: Paip2 N-terminal peptide; 0.001 µM, 6 h; baseline: DMSO).
`CN(C)C(=O)c1cccc(N2Cc3cn(Cc4ccc(Cl)cc4)nc3C2)c1` gave an IC50 of 0.019 µM (HEK293 expressing GluA1 and GluA2; glutamate excitotoxic cell death, CellTox Green; added: glutamate).
With `CCN(CC)CC(=O)Nc1cccc(-n2cc(-c3ccc4ccc(-c5cn(-c6cccc(NC(=O)CN(CC)CC)c6)nn5)cc4c3)nn2)c1` the fold regulation was 1.13 (RCC4; PCR angiogenesis array, measured: HIF1A; 5 x IC50, 2 h, normoxia; baseline: untreated).
With `CC1(C)CC(=O)C2=C(C1)Oc1ccc3ccccc3c1C2c1c[nH]c2ccccc12` (stereo not shown) the lipid content was 1 OD492 and 1.04 OD492 and 1.06 OD492 (3T3-L1 preadipocytes; adipogenesis, Oil Red O staining; IC20, 14 days, single replicate).

A few entries again:
`Nc1c(S(=O)(=O)O)cc(Nc2cccc(S(N)(=O)=O)c2)c2c1C(=O)c1ccccc1C2=O` gave a protein level of 50 to 70% (primary mouse articular chondrocytes; Western blot, measured: Phlpp1; 25 µM, days 0-6 and 0-9; baseline: vehicle).
With `COc1ccccc1-c1ccncc1C(=O)Nc1ccc(OCc2ccc(Cl)cc2)nn1` the colony survival was 101% and 98.6% and 103% (DLD-1 parental (BRCA2 WT); 5 µM, single run; baseline: untreated).
Under “mitochondrial membrane potential”, `N=C(N)NCCC[C@@H](NC(=O)[C@H](Cc1ccccc1)NC(=O)[C@H](Cc1ccccc1)NC(=O)[C@@H](CCCNC(=N)N)NC(=O)CCCC[C@@H]1SC[C@@H]2NC(=O)N[C@@H]21)C(N)=O` is recorded as ~3 fold (MDBK; MitoTracker Red CMXRos; 1 µM, serum-free medium; baseline: untreated cells).
Under “protein level log2 fold change”, `Cc1ncsc1-c1ccc([C@H](C)NC(=O)[C@@H]2C[C@@H](O)CN2C(=O)[C@@H](NC(=O)[C@H]2C[C@H](C(=O)N3CCC(c4cc(Nc5cc(C#N)ccn5)nc(N5CCC(F)(F)C5)c4)CC3)C2)C(C)(C)C)cc1` is recorded as -0.129 (CAL-33 with inducible wild-type LZK; MS proteomics, measured: HSPB8; 500 nM, 24 h, added: doxycycline; baseline: DMSO).
`C=C(NC(=O)c1csc(-c2ccc(NC(=O)CCCCCBr)cc2)n1)C(=O)NC(=C)C(=O)OC` gave an EC50 of 0.85 µM (H-MESO-1; cell viability, crystal violet; 24 h exposure, 48 h total).
The mean TGI of `O=C(C[Se]C(=O)c1cc2ccccc2o1)Nc1cccc(C(F)(F)F)c1` is reported as 3.21 µM (NCI60 CNS subpanel; NCI60 five-dose screen).
